Results from different studies.
Protocols differ between the studies behind these lines. Numbers after ± are the reported error.
KCNT1: Potassium channel subfamily T member 1 (KCNT1, Homo sapiens, UniProt Q5JUK3)
Chain of UniProt Q5JUK3 (whole entry, looked up): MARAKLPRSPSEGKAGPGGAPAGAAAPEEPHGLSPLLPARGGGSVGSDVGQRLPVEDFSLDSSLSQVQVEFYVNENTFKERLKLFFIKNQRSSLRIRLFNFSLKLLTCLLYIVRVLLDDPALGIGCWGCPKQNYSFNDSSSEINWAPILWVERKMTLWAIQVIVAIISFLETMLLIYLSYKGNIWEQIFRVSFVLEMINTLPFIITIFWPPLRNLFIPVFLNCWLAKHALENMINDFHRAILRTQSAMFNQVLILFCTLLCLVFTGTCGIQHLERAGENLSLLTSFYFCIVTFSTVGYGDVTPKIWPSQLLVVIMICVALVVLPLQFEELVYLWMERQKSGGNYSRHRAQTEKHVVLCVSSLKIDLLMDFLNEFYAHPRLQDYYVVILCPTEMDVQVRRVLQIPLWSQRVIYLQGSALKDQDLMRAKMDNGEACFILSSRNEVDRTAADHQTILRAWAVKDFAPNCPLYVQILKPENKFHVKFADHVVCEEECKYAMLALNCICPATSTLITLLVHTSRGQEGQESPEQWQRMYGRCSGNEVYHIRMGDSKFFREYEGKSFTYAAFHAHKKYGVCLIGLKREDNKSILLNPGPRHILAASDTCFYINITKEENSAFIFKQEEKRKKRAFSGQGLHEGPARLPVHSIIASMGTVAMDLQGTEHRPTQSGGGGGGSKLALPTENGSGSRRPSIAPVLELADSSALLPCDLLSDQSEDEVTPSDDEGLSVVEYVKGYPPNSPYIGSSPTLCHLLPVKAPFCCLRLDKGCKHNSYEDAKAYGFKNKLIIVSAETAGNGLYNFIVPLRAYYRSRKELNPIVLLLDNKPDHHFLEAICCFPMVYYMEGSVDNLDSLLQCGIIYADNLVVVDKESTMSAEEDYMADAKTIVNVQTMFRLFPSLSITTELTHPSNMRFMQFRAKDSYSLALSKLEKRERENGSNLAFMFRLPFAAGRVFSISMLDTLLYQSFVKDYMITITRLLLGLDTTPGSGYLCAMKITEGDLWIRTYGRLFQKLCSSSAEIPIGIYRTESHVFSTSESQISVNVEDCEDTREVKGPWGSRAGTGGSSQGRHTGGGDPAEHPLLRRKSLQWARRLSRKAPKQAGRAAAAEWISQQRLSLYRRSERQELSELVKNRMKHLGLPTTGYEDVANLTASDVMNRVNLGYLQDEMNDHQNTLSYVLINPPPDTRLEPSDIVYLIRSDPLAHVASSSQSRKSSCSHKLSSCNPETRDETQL
YAP1 WW2 domain: Transcriptional coactivator YAP1, WW2 domain (YAP1, Homo sapiens, UniProt P46937)
CFTR del508-508: Cystic fibrosis transmembrane conductance regulator (CFTR, Homo sapiens, UniProt P13569, del508-508)
T1: miR-21 precursor (Homo sapiens); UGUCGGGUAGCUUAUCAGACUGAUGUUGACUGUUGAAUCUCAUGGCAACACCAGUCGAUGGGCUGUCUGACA
T2: dsDNA; GGAAAAAATTTTTTCC
Chain of UniProt P03951 (whole entry, looked up): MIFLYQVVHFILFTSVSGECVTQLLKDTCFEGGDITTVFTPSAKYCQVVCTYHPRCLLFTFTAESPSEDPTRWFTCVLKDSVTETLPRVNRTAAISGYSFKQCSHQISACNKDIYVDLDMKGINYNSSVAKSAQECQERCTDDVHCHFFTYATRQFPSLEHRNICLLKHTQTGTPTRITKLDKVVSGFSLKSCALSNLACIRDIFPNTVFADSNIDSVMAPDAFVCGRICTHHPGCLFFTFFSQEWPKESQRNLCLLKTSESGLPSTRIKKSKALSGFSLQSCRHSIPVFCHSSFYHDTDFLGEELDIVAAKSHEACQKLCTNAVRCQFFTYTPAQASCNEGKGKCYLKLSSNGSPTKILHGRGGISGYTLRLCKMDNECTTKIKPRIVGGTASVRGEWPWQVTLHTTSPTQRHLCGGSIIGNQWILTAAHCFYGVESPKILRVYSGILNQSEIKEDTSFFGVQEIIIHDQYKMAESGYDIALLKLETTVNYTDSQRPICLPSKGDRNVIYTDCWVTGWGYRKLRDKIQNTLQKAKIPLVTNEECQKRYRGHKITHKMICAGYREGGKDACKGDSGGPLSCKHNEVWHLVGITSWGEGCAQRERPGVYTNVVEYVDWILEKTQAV
Chain of UniProt Q12791 (whole entry, looked up): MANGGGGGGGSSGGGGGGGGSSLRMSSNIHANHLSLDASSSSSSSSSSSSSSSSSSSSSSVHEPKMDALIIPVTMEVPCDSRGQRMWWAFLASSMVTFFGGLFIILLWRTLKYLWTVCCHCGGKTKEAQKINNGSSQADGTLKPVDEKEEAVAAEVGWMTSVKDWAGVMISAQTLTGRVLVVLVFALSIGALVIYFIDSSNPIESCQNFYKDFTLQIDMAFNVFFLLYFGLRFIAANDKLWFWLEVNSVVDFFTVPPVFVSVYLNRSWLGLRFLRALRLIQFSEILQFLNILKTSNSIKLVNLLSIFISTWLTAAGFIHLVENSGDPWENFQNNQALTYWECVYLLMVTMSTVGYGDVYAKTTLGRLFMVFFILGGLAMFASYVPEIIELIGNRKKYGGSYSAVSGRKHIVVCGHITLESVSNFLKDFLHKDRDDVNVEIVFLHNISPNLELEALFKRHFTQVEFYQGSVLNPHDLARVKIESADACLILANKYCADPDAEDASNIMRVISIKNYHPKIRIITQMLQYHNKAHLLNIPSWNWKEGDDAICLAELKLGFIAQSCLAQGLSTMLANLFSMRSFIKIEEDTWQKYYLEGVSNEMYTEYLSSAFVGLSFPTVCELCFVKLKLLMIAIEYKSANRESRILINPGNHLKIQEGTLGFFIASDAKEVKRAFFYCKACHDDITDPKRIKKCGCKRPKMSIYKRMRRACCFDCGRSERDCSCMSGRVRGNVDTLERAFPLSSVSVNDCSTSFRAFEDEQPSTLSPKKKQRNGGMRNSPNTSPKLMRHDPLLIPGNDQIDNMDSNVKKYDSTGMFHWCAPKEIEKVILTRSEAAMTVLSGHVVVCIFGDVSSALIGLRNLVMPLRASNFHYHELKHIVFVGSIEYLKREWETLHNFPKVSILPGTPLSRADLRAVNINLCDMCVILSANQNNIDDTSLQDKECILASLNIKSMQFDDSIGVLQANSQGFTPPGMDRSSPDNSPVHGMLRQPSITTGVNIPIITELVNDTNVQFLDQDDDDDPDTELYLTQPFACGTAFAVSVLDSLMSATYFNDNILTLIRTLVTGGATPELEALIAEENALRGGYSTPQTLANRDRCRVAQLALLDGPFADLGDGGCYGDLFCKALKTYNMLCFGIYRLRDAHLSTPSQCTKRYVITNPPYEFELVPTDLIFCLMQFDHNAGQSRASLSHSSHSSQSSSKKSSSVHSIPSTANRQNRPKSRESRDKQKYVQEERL
Chain of UniProt Q86UW1 (whole entry, looked up): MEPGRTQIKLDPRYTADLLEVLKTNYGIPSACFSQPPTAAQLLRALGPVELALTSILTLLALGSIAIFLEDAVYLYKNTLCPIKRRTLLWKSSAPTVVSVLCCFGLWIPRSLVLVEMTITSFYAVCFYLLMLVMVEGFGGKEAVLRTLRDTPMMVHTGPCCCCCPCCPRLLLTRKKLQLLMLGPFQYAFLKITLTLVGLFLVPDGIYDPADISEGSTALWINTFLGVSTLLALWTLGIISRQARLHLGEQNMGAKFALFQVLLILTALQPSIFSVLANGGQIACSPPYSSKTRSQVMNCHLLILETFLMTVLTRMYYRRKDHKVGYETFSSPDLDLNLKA
Chain of UniProt P28223 (whole entry, looked up): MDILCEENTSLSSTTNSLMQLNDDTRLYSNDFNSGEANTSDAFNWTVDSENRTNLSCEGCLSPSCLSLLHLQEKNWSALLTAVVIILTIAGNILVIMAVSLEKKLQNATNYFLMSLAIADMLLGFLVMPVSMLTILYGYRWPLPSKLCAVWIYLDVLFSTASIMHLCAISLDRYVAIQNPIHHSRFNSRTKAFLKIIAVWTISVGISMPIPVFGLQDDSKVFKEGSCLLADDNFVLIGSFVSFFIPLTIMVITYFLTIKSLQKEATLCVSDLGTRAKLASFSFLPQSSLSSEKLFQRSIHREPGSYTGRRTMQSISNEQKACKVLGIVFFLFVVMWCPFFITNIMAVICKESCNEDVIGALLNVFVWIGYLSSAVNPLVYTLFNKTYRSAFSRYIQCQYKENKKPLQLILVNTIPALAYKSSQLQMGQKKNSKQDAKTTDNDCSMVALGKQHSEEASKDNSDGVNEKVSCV
Chain of UniProt P63138 (whole entry, looked up): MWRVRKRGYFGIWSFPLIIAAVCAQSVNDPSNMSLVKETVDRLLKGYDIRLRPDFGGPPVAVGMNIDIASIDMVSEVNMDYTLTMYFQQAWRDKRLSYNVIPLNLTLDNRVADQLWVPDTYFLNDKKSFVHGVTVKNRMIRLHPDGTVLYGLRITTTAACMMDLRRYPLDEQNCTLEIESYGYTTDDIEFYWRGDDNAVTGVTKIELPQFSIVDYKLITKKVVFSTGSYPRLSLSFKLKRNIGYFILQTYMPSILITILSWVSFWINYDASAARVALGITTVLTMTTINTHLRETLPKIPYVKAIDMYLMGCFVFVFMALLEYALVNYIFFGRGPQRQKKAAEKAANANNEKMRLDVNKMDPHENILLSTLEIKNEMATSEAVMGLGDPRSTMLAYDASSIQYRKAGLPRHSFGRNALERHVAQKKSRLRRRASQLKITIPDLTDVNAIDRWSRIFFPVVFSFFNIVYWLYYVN

Molecule | target | test | test system | setting | how to read | measurement | result
Fc1cccc(SSc2cccc(F)c2)c1 | tubulin | colchicine binding, [3H]colchicine binding |  | 50 µM, 10 min, 37 °C, together with: [3H]colchicine 5.0 µM |  | inhibition | 12 ± 2%
CCOc1ccccc1S(=O)(=O)N1CC(c2nc(-c3cccc(F)c3)no2)C1 | KCNT1 | Tl+ flux, inhibitor | HEK293 expressing KCNT1 | 30 µM |  | activity class | inactive
N[C@@H](Cc1cnc[nH]1)C(=O)O | HARS1 (Homo sapiens, UniProt P12081, S356N) | thermal stability, DSF |  |  |  | ΔTm | 8.3 °C
CSCC[C@H](NC(=O)[C@@H]1CCCN1C(=O)[C@@H](NC(=O)[C@H](Cc1ccc(O)cc1)NC(=O)[C@H](C)NC(=O)[C@@H]1CCCN1C(=O)[C@@H]1CCCN1C(=O)[C@@H]1CCCN1C(=O)[C@H](CO)NC(=O)[C@H](Cc1c[nH]cn1)NC(=O)CN)[C@@H](C)O)C(=O)N[C@@H](CO)C(=O)O | YAP1 WW2 domain | binding, ITC |  | pH 7.0, 25 °C, WW2 domain |  | TΔS | 1.15 ± 0.53 kcal/mol
O=C(C[C@@H](C(F)F)n1ccc(F)n1)N1CCC(O)(Cn2cnc3c(cnn3-c3ccc(F)cc3)c2=O)CC1 | USP7 (Homo sapiens, UniProt Q93009, V517F) | enzyme activity, inhibitor, Ub-AMC |  |  | relative to: V517F over wild type | IC50 fold change | ~2340 fold
CC[C@H](C)[C@H](NC(=O)[C@@H]1CCCN1C(=O)[C@@H]1CCCN1C(=O)[C@@H]1CCCN1C(=O)[C@@H](NC(=O)[C@H](CC(N)=O)NC(=O)[C@@H](N)Cc1ccccc1)[C@@H](C)CC)C(=O)N[C@@H](Cc1ccc(O)cc1)C(=O)N[C@H](C(=O)N[C@@H](CO)C(=O)N[C@@H](CCCNC(=N)N)C(=O)N[C@@H](C)C(=O)O)[C@@H](C)O | YAP1 WW2 domain | binding, ITC |  | pH 7.0, 25 °C, WW2 domain |  | ΔG | -5.47 ± 0.03 kcal/mol
COc1cccc(OC)c1C(=O)NCCNc1nc2cc(C)cc(C)c2cc1C#N | CFTR del508-508 | CFTR correction, corrector, iodide influx rate | FRT expressing YFP-H148Q/I152L | up to 25 µM, 16-20 h, 37 °C, together with: forskolin 20 µM, genistein 50 µM |  | Vmax | 111 µM/s
O=C(/C=C/C=C/c1ccc2c(c1)OCO2)N1CCCCC1 | Gabra3/Gabrb2 (Rattus norvegicus, UniProt P20236+P63138) | two-electrode voltage clamp | Xenopus oocytes | 100 µM |  | Hill coefficient of GABA curve | 1.1 ± 0.2
NS(=O)(=O)c1ccc(N2N=C(C(F)(F)F)C[C@@H]2c2ccc(F)cc2F)cc1 | Prostaglandin G/H synthase 1 (Canis lupus familiaris, UniProt Q8HZR1) | TXB2 formation, inhibitor | clotting dog whole blood | 1 h, 37 °C |  | IC80 | > 500 µM
CC1(C)Cc2cc(Cl)cc(C3CC3CN)c2O1 (racemic) | HTR2A (Homo sapiens, UniProt P28223) | agonist, FLIPR calcium flux | HEK293 | up to 10 µM |  | EC50 | inactive
CC1(C)CCC(c2ccc(Cl)cc2)=C(CN2CCN(c3ccc(C(=O)NS(=O)(=O)c4ccc(N[C@H](CCN5CCOCC5)CSc5ccccc5)c(S(=O)(=O)C(F)(F)F)c4)cc3)CC2)C1 | T1, miR-21 precursor (Homo sapiens) | DSF |  | NaCl 0.25 mM |  | binding | no binding
Cl.N=C(N)N | phenol | spectral titration |  |  |  | association constant | 970000 M⁻¹
CC(C)[C@H](NC(=O)[C@@H](N)[C@@H](C)O)C(=O)N[C@@H](C)C(=O)N1CCC[C@H]1C(=O)N1CCC[C@H]1C(=O)N1CCC[C@H]1C(=O)N1CCC[C@H]1C(=O)N[C@@H](Cc1ccc(O)cc1)C(=O)N[C@@H](CCCNC(=N)N)C(=O)N[C@@H](Cc1c[nH]cn1)C(=O)N[C@@H](CCCNC(=N)N)C(=O)N[C@@H](CC(N)=O)C(=O)O | Transcriptional coactivator YAP1, WW1 domain (YAP1, Homo sapiens, UniProt P46937) | binding, ITC |  | pH 7.0, 25 °C, WW1 domain |  | ΔH | -16.1 ± 0.64 kcal/mol
O=C(Nc1ccccc1C(=O)Nc1ccccc1C(=O)NCc1ccco1)c1ccco1 | Relaxin receptor 1 (RXFP1, Homo sapiens, UniProt Q9HBX9) | cAMP level, agonist, HTRF | HEK293 cells expressing RXFP1 |  | relative to: forskolin 57.5 µM as 100% | efficacy | 80%
CC(C)C[C@H](NC(=O)[C@@H](NC(=O)[C@@H](N)[C@@H](C)O)C(C)C)C(=O)N1CCC[C@H]1C(=O)N1CCC[C@H]1C(=O)N1CCC[C@H]1C(=O)N1CCC[C@H]1C(=O)N[C@@H](Cc1ccc(O)cc1)C(=O)N[C@@H](CCCNC(=N)N)C(=O)N[C@@H](Cc1c[nH]cn1)C(=O)N[C@@H](C)C(=O)N[C@@H](CC(N)=O)C(=O)O | YAP1 WW2 domain | binding, ITC |  | pH 7.0, 25 °C, WW2 domain |  | TΔS | -3.49 ± 0.01 kcal/mol
CN(C)C(=O)C(CCN1CCC(O)(c2ccc(Cl)cc2)CC1)(c1ccccc1)c1ccccc1 | Calcium-activated potassium channel subunit alpha-1, with LRRC26 γ1 subunit (KCNMA1, Homo sapiens, UniProt Q12791) | ion current, whole-cell patch clamp | HEK-293T overexpressing | 10 µM, second application |  | time constant | 32 s
COc1ccc(Cl)cc1Nc1nc2c(s1)CCCc1nc(NC(=O)C(C)(C)C)sc1-2 | CFTR del508-508 | iodide influx, corrector, YFP halide quenching | FRT cells expressing YFP-H148Q/I152L | 16 to 20 h, 37 °C, genistein 50 µM, together with: forskolin 20 µM |  | Vmax | 336 µM/s
NC[C@@H]1O[C@H](O[C@H]2[C@@H](O)[C@H](O[C@@H]3[C@@H](O)[C@H](N)C[C@H](N)[C@H]3O[C@H]3O[C@H](CN)[C@@H](O)[C@H](O)[C@H]3N)O[C@@H]2CO)[C@H](N)[C@@H](O)[C@@H]1O | T2, dsDNA | competitor, fluorescence intercalator displacement |  | pH 6.8, 20 °C, KCl 100 mM, together with: thiazole orange |  | binding | binds weakly
Nc1ccc(-c2nc([C@H]3CCc4cc(-c5cc(Cl)ccc5-n5cnnn5)cc(=O)n43)c(F)[nH]2)c(F)n1 | F11 (Homo sapiens, UniProt P03951) |  | human, blood | oral, 80 mg once daily, fed, day 1, 24 h |  | FXI activity inhibition | 33 ± 3.5%
CO[C@H]1[C@@H](O)[C@H]([n+]2cn(C)c3c(=O)[nH]c(N)nc32)O[C@@H]1COP(=O)([O-])OP(=O)(O)OP(=O)(O)OC[C@H]1O[C@@H](n2cnc3c(=O)[nH]c(N)nc32)[C@H](O)[C@@H]1O | NUDT16 (Homo sapiens, UniProt Q96DE0) | decapping, substrate | capped RNA transcribed by SP6 polymerase | concentration not given, 30 min |  | cap hydrolysis | 8.72%
C/C(=N/N=c1/scc(-c2ccc([N+](=O)[O-])cc2)n1-c1ccc(F)cc1)c1ccc2c(c1)NC(=O)CO2 | Aldo-keto reductase family 1 member A1 (Bos taurus, UniProt Q3ZCJ2) | enzyme activity, inhibitor, absorbance |  | 1 mM |  | inhibition | 24.7%
IINFEKL | ERAP1 (Homo sapiens, UniProt Q9NZ08, I681R) | substrate | peptide | pH 8.0, 27 °C, mutant I681R, together with: L-AMC, peptide activator 100 µM |  | K1/2 of L-AMC | 0.4 ± 0.09 mM
COc1cccc(S(=O)(=O)N2CC(c3nc(-c4ccsc4)no3)C2)c1 | KCNT1 | Tl+ flux, inhibitor | HEK293 expressing KCNT1 | 30 µM |  | activity class | inactive
COc1ccc(Cl)cc1Nc1nc2c(s1)CCCc1nc(N)sc1-2 | CFTR del508-508 | iodide influx, corrector, YFP halide quenching | FRT cells expressing YFP-H148Q/I152L | 16 to 20 h, 37 °C, genistein 50 µM, together with: forskolin 20 µM |  | Vmax | 351 µM/s
CCc1c(Cl)c(O)c(Cl)c(O)c1C(=O)O[C@H]1[C@H](O)[C@H](OC)[C@H](OC/C2=C\C=C\C[C@H](O)/C(C)=C/[C@H](CC)[C@@H](O[C@@H]3OC(C)(C)[C@@H](OC(=O)C(C)C)[C@H](O)[C@@H]3O)/C(C)=C/C(C)=C/C[C@@H]([C@@H](C)O)OC2=O)O[C@@H]1C | Organic solute transporter subunit alpha, with OSTβ (SLC51A, Homo sapiens, UniProt Q86UW1) | DHEAS uptake, inhibitor | Flp-In-293 expressing OSTα/β | 100 µM, 30 s, preincubation and co-incubation, together with: DHEAS 20 µM |  | inhibition | > 80%
